Published values pooled from the literature.
Each numbered part is a random draw from the data of one study; scales do not carry over between parts.

Study 1 — method: protein-binding microarray; molecule type: double-stranded DNA, one strand shown; matrix: in vitro; concentration: 250 nM; notes: 60-bp whole probe; added: salmon DNA 0.4 mg/ml; reference: random background probes; direction: higher = stronger binding; quantity: log fluorescence; all sequences stand within: GCCTAGCAC … GTCTTGATTCGCTTGACGCTGCTG
Target: Interferon regulatory factor 7, full length, phosphomimetic (IRF7, Homo sapiens, UniProt Q92985, residues 1-503, S101K/S471D/S472D/S475D/S476D/S477D/S483D/S484D/S487D)
Chain of UniProt Q92985 (whole entry, unmodified, looked up): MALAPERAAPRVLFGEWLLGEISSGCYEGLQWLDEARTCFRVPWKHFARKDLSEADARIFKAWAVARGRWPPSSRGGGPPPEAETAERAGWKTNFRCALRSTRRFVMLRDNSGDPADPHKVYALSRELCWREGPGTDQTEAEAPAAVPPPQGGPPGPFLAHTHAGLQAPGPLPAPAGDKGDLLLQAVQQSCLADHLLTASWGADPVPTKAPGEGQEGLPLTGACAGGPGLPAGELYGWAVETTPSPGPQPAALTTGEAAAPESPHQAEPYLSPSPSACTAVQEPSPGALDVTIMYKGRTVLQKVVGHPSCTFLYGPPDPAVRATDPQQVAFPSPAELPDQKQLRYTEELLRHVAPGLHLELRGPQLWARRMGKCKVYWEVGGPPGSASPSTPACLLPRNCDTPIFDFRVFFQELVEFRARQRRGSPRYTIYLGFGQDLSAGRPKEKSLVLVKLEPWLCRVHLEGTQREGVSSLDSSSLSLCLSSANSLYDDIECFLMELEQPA
Strand = TTAGATGCCAGTTTCGATTAGTGCTAG; value = 7.85 z-score
Strand = AAAAATTAGTGTTTCCCCTAGTGCTAG; value = 0.549 z-score
Strand = GACGGTTTCGGTTTCCGGACGTGCTAG; value = 14.4 z-score
Strand = TTAGGACAGGGGTTTCGGTTAGTGCTA; value = 5.8 z-score
Strand = GACGATATCAGACTGGAGCCGTGCTAG; value = -0.49 z-score
Strand = TTAGGACTGCATCTCCTTTAGTGCTAG; value = -0.0439 z-score

Study 2 — method: universal PBM; molecule type: double-stranded DNA, one strand shown; matrix: in vitro; concentration: 600 nM; direction: higher = stronger binding; quantity: E-score
Target: Sal-like protein 4, full length isoform A (SALL4, Homo sapiens, UniProt Q9UJQ4, residues 1-1053)
Chain of UniProt Q9UJQ4 (whole entry, looked up): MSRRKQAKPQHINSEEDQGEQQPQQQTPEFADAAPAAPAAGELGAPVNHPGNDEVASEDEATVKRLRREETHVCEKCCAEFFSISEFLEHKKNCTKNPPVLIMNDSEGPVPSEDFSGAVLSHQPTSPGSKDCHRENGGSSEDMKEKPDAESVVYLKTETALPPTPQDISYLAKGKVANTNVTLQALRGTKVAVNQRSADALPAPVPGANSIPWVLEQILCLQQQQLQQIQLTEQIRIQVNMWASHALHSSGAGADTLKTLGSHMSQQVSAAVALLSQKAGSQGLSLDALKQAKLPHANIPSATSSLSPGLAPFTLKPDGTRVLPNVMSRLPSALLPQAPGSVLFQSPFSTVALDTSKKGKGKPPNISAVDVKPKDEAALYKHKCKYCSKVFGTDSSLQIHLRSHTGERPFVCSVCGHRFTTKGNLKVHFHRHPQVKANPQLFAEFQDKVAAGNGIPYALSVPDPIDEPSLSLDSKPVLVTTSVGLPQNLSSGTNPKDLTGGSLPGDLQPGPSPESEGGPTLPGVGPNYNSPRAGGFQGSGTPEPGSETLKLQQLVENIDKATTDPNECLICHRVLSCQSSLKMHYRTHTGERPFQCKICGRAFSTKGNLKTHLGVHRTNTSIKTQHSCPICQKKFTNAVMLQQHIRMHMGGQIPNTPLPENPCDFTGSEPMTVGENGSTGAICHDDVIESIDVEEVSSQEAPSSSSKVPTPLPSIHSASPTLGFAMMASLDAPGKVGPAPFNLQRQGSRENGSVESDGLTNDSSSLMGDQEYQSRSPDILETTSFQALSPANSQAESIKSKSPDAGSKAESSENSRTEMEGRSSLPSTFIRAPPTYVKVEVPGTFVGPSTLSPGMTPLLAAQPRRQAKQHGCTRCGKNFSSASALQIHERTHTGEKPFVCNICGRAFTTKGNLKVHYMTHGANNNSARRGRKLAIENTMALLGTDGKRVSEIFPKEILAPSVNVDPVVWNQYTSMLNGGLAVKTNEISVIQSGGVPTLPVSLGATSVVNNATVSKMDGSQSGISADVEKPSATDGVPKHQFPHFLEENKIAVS
Notes: 8-mer, flanks averaged, mean of replicates
Strand = AAGGAAGA; value = 0.0279
Strand = GGGAAGAC; value = -0.21
Strand = CAGACTAC; value = -0.0758
Strand = GCTCCAGA; value = -0.305

Study 3 — method: RNA Bind-n-Seq; molecule type: RNA; matrix: in vitro; concentration: 365 nM; reference: no-protein control; direction: higher = stronger binding; quantity: RBNS enrichment (R)
Target: RNA binding protein fox-1 homolog 2, RRM domain, GST-SBP tag (RBFOX2, Homo sapiens, UniProt O43251-10, residues 100-194)
Notes: natural RNA segment, single round, ends assumed
Strand = GGGAGUUCUACAGUCCGACGAUCCGAGUGUGAACAUGGCACUGCUGUUCCCUUCCCCCUCCCUGCACCCGCCGCAGCCUGCCAUCCCAUUUGGAUGUAUCAAUGCCACUGAGUUGUCUGUCCGUCCGUGGAGCUGGAAUUCUCGGGUGCCAA; value = 0.713
Strand = GGGAGUUCUACAGUCCGACGAUCUGUCCCCCCAUUAGGAUUCUAUUACAUAUGCAAUUGUAGGUUCAACCUGUCCCUUUCCCUGCCAGCAAACCCCACCACCCUAAGAGAAAUUUUAGCUUAUAUAUGACGGUUGGAAUUCUCGGGUGCCAA; value = 1.27
Strand = GGGAGUUCUACAGUCCGACGAUCAUUGUACUCUUCUAGGCUGGACCGAAUUCAUAUGCAGAUUGAAGUGAGACCUGCUCUUUACAGAUGGUAUUUUGAUAGAUACUGGAGUUUGUCUGUAUUAUAUCUGUGCCUGGAAUUCUCGGGUGCCAA; value = 0.49
Strand = GGGAGUUCUACAGUCCGACGAUCCUUUGGUUUUCUGUGGCAGCGUCUCCCUUCUCAUUGUUUCUCUGUGUUUUAGUGGGGAUAGUACCAUAUGUGAUAUAACCUAGAAGCACUUGUCUCUGCUCUUAUGAAACUGGAAUUCUCGGGUGCCAA; value = 0.368

Study 4 — method: Sort-seq; item: YFP reporter; matrix: E. coli; notes: PhoQ-PhoP variant library; added: 10 µM Mg2+; reference: high Mg2+ state; direction: higher = stronger signaling; quantity: fold induction
Molecule: PhoQ, residues 284 288 289 292 302 303 TASMAF
target = PhoP, residues 12 14 15 18 19 TQAML (Escherichia coli, UniProt P23836); value = 18
target = PhoP, residues 12 14 15 18 19 NQCAL (Escherichia coli, UniProt P23836); value = 12.4
target = PhoP, residues 12 14 15 18 19 LHTVL (Escherichia coli, UniProt P23836); value = 11.6
